Assay results of several laboratories.
Each line is one published result; not all experiments were run side by side. Values joined by “and” are separate records of one study, mostly repeats; a detail may differ. Numbers after ± are the reported error.
uncharacterized protein: uncharacterized protein (Spodoptera exigua, UniProt F1CEY0)
ALB: Albumin (ALB, Homo sapiens, UniProt P02768)
ADORA2A: Adenosine receptor A2a (ADORA2A, Homo sapiens, UniProt P29274)

SMILES | target | assay | test system | setting | how to read | quantity | result
CC12CCC(CC1=O)C2(C)C (stereo not drawn) | uncharacterized protein | binding, competitor, fluorescence displacement | – | 20 µM, pH 7.4, with: 1-NPN 20 µM | reference: 1-NPN alone | relative fluorescence | 72.8%
OC[C@H]1O[C@@H](Oc2cc3c(O)cc(O)cc3[o+]c2-c2ccc(O)cc2)[C@H](O)[C@@H](O)[C@@H]1O | ALB | binding, fluorescence quenching | – | 40 °C | – | Gibbs free energy | -24.5 kJ/mol
C=CC(=O)N1CCC(C(=O)NCC(=O)N2CCN(c3nc(-c4cnc(N)nc4C(F)F)nc(N4CCOCC4)n3)CC2)CC1 | Tyrosine-protein kinase JAK1, JH1 kinase domain (JAK1, Homo sapiens, UniProt P23458) | KINOMEscan | – | 1 µM | – | remaining binding | 100%
O=C(Nc1nc2ccccc2[nH]1)c1ccccc1O | ADORA2A | binding, radioligand competition | – | 10 µM, with: [3H]ZM241385 | – | displacement | 46 ± 5%
Cc1cc2c(cc1N1C(=O)c3cccc4c(Cl)ccc(c34)C1=O)n(C)c(=O)n2C | Transcription initiation factor TFIID subunit 1-like, BD2 (TAF1L, Homo sapiens, UniProt Q8IZX4) | – | – | 10 µM | – | delta Tm | 1.6 °C
CC(C)=CCC/C(C)=C/CC/C(C)=C/CO | uncharacterized protein | binding, competitor, fluorescence displacement | – | 20 µM, pH 7.4, with: 1-NPN 20 µM | reference: 1-NPN alone | relative fluorescence | 50.6%
COc1cc(NC(=O)c2ccccn2)ccc1/N=N/c1ccccc1Cl | GRM4 (Homo sapiens, UniProt Q14833) | positive allosteric modulator, IP accumulation | HEK293 | 30 µM, in the dark, with: low-dose orthosteric agonist | – | activation | 119%
Nc1ncnc2c1ncn2[C@@H]1O[C@H](COP(=O)(O)CP(=O)(O)OP(=O)(O)O)[C@@H](O)[C@H]1O | P2X purinoceptor 1 (P2RX1, Homo sapiens, UniProt P51575, E122A) | saturation binding | HEK293 | 103 nM | – | specific binding | 776 CCPM and 1200 CCPM and 764 CCPM
NCCS(=O)(=O)O | SLC6A6 (Homo sapiens, UniProt P31641, S402A) | binding, microscale thermophoresis | – | 61 nM, room temperature, with: 50 nM labelled protein | higher = more binding | normalised MST signal | 0.0243
C[C@@H](c1ccc(-n2cnc3c(N)ncnc32)cc1)N1CCc2nn(C)c(Cc3ccccc3)c2C1=O | Tyrosine-protein kinase JAK1, JH2 pseudokinase domain (JAK1, Homo sapiens, UniProt P23458) | KINOMEscan | – | 0.1 µM | reference: DMSO control | remaining binding | 85%
Cc1occc(=O)c1[O-].[Cl-].[W+4].c1cc[cH-]c1.c1cc[cH-]c1 | ALB | binding, fluorescence quenching | – | 288 K | – | Gibbs free energy change | -22.5 kJ/mol
CSCC[C@H](N)C(=O)Nc1ccc2ccccc2c1 | Puromycin-sensitive aminopeptidase (Rattus norvegicus, UniProt F1M9V7) | substrate | – | – | – | Km | 3.3 µM
Nc1ncnc2c1ncn2[C@@H]1O[C@H](CO[P@](=O)(O)O[P@](=O)(O)O[P@@](=O)(O)S)[C@@H](O)[C@H]1O | GUK1 (Homo sapiens, UniProt Q16774) | ITC | – | molar ratio 1.11 | – | ΔH | -0.99 kcal/mol
COC(=O)C(Cc1cccc(OC)c1I)NC(=O)CN(Cc1ccccc1)C(=O)OC(C)(C)C (stereo not drawn) | OPRK1 (Homo sapiens, UniProt P41145) | binding | – | concentration not given | – | activity | inactive
CC[C@H](C)[C@@H]1NC(=O)[C@H](Cc2ccc(-c3ccccc3)cc2)NC(=O)[C@H](CC2CCCCC2)NC(=O)[C@@H]2[C@@H](c3ccccc3)CCN2C(=O)[C@@H](NC(=O)[C@H](CCCNC(=N)N)NC(=O)[C@H](CCCNC(=N)N)NC(C)=O)CSSC[C@@H](C(=O)N[C@@H](CCCNC(=N)N)C(=O)N[C@@H](CCCNC(=N)N)C(N)=O)NC(=O)[C@H](C(C)C)NC(=O)[C@@H]2CCCN2C(=O)[C@H](CC(=O)O)NC(=O)[C@H](Cc2ccc(O)cc2)NC(=O)[C@H](CO)NC1=O | GTPase KRas, GDP-bound (KRAS, Homo sapiens, UniProt P01116, G12D) | affinity selection mass spectrometry | – | mixture library 3, with: protein titration up to 2.5 µM | lower is stronger binding | lowest bound protein concentration | 0.62 µM
O=C(NC1CCC1)c1ccc2nc(-c3cccc(NS(=O)(=O)NCCN4CCCCC4)c3)cn2c1 | SBK1 (Homo sapiens, UniProt Q52WX2) | enzyme activity | – | 10 µM | – | remaining activity | 98%
Cc1cc(-c2ccnc3[nH]cc(F)c23)cc(F)c1[C@@]1(O)[C@H](C)CN(C(=O)CN)C[C@@H]1C | JAK1 (Homo sapiens, UniProt P23458) | ATP/ADP probe binding, KiNativ | HEK293T lysate | 10 µM, Lys1 peptide domain 2 | – | probe labelling inhibition | 60.5%
NC(=O)c1ccc[n+]([C@@H]2O[C@H](COP(=O)([O-])OP(=O)(O)OC[C@H]3O[C@@H](n4cnc5c(N)ncnc54)[C@H](O)[C@@H]3O)[C@@H](O)[C@H]2O)c1 | HSD3B1 (Homo sapiens, UniProt P14060) | cofactor | – | – | – | Km | 34.1 µM
Cc1cc(C(=O)NC[C@@H](N)C(=O)O)sc1-c1ccccc1Br | Glutamate receptor ionotropic, NMDA 1, with GluN2C (Grin1, Rattus norvegicus, UniProt P35439) | – | – | with: glutamate 300 µM | – | Hill slope | 1.39
COc1cc(Nc2ncc3c(n2)-c2ccc(Cl)cc2C(c2c(F)cccc2OC)=NC3)ccc1C(=O)O | ROS1 | kinase activity | – | 1 µM | – | remaining activity | 20%
CCC(=O)NS(=O)(=O)c1ccc(-c2c(-c3ccccc3)noc2C)cc1 | RXRA (Homo sapiens, UniProt P19793) | reporter gene, Gal4 hybrid reporter | – | 50 µM | reference: vehicle | activation | 1.02 fold
Cc1cc(O)c(C(C)C)cc1N=C1CSC(=O)N1 | ADORA2A | radioligand displacement | – | with: [3H]ZM241385 | – | ligand efficiency | 0.44
C=CC[C@@H]1c2ccc(OC)c(OC)c2CN2CCc3cc4c(cc3[C@H]12)OCO4 | P2X purinoceptor 7 (P2RX7, Homo sapiens, UniProt Q99572) | ATP-evoked current, inhibitor, whole-cell patch clamp | HEK293 transfected | 1 µM | – | remaining activity | 18.6%
Nc1ncnc2c1ncn2[C@@H]1O[C@H](COP(=O)(O)OP(=O)(O)OP(=O)(O)O)[C@@H](O)[C@H]1O | Hexokinase-3 (HK3, Homo sapiens, UniProt P52790, R807A) | substrate | – | mutant R807A, with: glucose 0.5 mM | – | kcat | 71 ± 7 s⁻¹
O=c1nc(SCc2cc(F)cc(C(F)(F)F)c2)nc(SCc2ccc3sccc3c2)[nH]1 | TOP2A (Homo sapiens, UniProt P11388) | ATPase activity | – | 3.9 µM, with: ATP 0.1 mM | – | ATP hydrolysis rate | 1.17 µM/min and 0.778 µM/min
COc1cc(N2CCN(C)CC2)ccc1Nc1nc(N)n(C(=S)NCc2c(Cl)cccc2Cl)n1 | MAST1 (Homo sapiens, UniProt Q9Y2H9) | enzyme activity | – | 10 µM | reference: control | remaining activity | 13%
Nc1ccc(C(=O)O)cc1 | BEST1, with wild-type BEST1 (Homo sapiens, UniProt O76090, D302A) | ion current, whole-cell patch clamp | HEK293 co-expressing mutant and wild-type | concentration not given, voltage 0 mV | – | current density | -0.28 pA/pF and 0.02 pA/pF and -0.15 pA/pF and -0.03 pA/pF and -0.07 pA/pF
C[C@H](CCC(C)(C)O)[C@H]1CC[C@H]2[C@@H]3CC=C4C[C@@](C)(O)CC[C@]4(C)[C@H]3CC[C@]12C | Glutamate NMDA receptor; GRIN1/GRIN2B (GRIN1/GRIN2B, Homo sapiens, UniProt Q05586+Q13224) | ion current, positive allosteric modulator, two-electrode voltage clamp | Xenopus oocytes | 10 µM, wild type, with: 100 µM glutamate and glycine | reference: absence of compound | current potentiation | 208 ± 8.6%
O=C(Nc1cccc2c(=O)cc(-c3nnn[nH]3)oc12)c1ccc(OCCCCc2ccccc2)cc1 | Volume-regulated anion channel subunit LRRC8C, part LRRC8A IL1 chimera (LRRC8C, Homo sapiens, UniProt Q8TDW0) | swelling-activated current, inhibitor, whole-cell patch clamp | transfected HCT116 LRRC8-/- cells | 10 µM, low ionic strength, at +100 mV | – | inhibition | 76.3%
CCc1ccccc1-c1ccc(C(=O)NC[C@@H](N)C(=O)O)s1 | Glutamate receptor ionotropic, NMDA 1, with GluN2C (Grin1, Rattus norvegicus, UniProt P35439, S688A) | receptor activation | rat | with: glutamate 300 µM | – | log EC50 | -2.72 µM

A few entries again:
SMILES | target | assay | test system | setting | how to read | quantity | result
Nc1ncnc2c1ncn2[C@@H]1O[C@H](CO[P@](=O)(O)O[P@](=O)(O)O[P@@](=O)(O)S)[C@@H](O)[C@H]1O | GUK1 (Homo sapiens, UniProt Q16774) | ITC | – | molar ratio 1.11 | – | ΔH | -0.99 kcal/mol
COc1cc(NC(=O)c2ccccn2)ccc1/N=N/c1ccccc1Cl | GRM4 (Homo sapiens, UniProt Q14833) | positive allosteric modulator, IP accumulation | HEK293 | 30 µM, in the dark, with: low-dose orthosteric agonist | – | activation | 119%
C=CC(=O)N1CCC(C(=O)NCC(=O)N2CCN(c3nc(-c4cnc(N)nc4C(F)F)nc(N4CCOCC4)n3)CC2)CC1 | Tyrosine-protein kinase JAK1, JH1 kinase domain (JAK1, Homo sapiens, UniProt P23458) | KINOMEscan | – | 1 µM | – | remaining binding | 100%
COc1cc(N2CCN(C)CC2)ccc1Nc1nc(N)n(C(=S)NCc2c(Cl)cccc2Cl)n1 | MAST1 (Homo sapiens, UniProt Q9Y2H9) | enzyme activity | – | 10 µM | reference: control | remaining activity | 13%
CCC(=O)NS(=O)(=O)c1ccc(-c2c(-c3ccccc3)noc2C)cc1 | RXRA (Homo sapiens, UniProt P19793) | reporter gene, Gal4 hybrid reporter | – | 50 µM | reference: vehicle | activation | 1.02 fold
